# Assay results collected from several papers.
# Lines come from different studies, so protocols differ. Numbers after ± are the reported error.
Structure (SMILES),cell line,test,conditions,how to read,quantity,result
Cc1ccc(CNS(=O)(=O)c2cccc(/C=C/C(=O)NO)c2)cc1,MOPC-315,cell growth,24 h,reference: belinostat,relative potency,1.91
CC(C)=CCc1c(O)cc(CO)cc1O,"HepG2, palmitic acid-induced insulin resistance",,"15 µM, 24 h",,glucose consumption,4.51 ± 0.76 mM
CCC(=C(c1ccc(Cl)cc1)c1ccc(OCCCN(C)C)cc1)c1ccc(OC)cc1,NCI-60 cell lines,NCI five-dose screen,mean over 60 lines,,GI50,3.67 µM
COCCNCC(=O)N(CCCCN)CC(=O)N(CC(=O)N(CC(=O)N(CCCCN)CC(=O)N[C@@H](CCCCN)C(=O)N[C@H](CCCCN)C(=O)N[C@@H](CCSC)C(=O)NCCCC[C@H](NC(=O)[C@H](CCSC)NC(=O)[C@@H](CCCCN)NC(=O)[C@H](CCCCN)NC(=O)CN(CCCCN)C(=O)CN(C(=O)CN(Cc1ccc2c(c1)OCO2)C(=O)CN(CCCCN)C(=O)CNCCOC)[C@H](C)c1ccccc1)C(N)=O)[C@H](C)c1ccccc1)Cc1ccc2c(c1)OCO2,H358,scratch,"10 to 30 µM, 48 h",,cell migration,inhibited
Cc1cc(-c2ccccc2)c2ccc3c(-c4ccccc4)cc(C)nc3c2n1.[Cl-].[Cl-].[Ru+2].c1ccc(-c2ccccn2)nc1.c1ccc(-c2ccccn2)nc1,B16-F10,WST-1,,reference: dark IC50 over light IC50,phototoxicity index,> 900
Nc1ncc(-c2cnn(C3CCNCC3)c2)cc1-c1nc2ccc(O)cc2o1,HEL 92.1.7,"RT-PCR, refers to: cyclin B1","concentration not given, 16 h",reference: untreated,mRNA level,decreased
COc1cc(CNC(=O)C[C@H](C)CCC=C(C)C)ccc1OCc1cn(-c2ccc(Cl)c(Cl)c2)nn1,UACC-257 melanoma cells,SRB,"10 µM, 48 h",,growth percent,91%
[Cl][Pd-2]1([Cl])[N+](=Cc2ccc[nH]2)Cc2cccc[n+]21,MCF-12A,MTT,"100 µg/mL, 24 h",,viability reduction,> 80%
Cc1cccc(O[C@H]2CCC[C@@H](C(C)CNCc3ccncc3)C2)c1 (relative stereo),MC65 Tet-Off cells,,"concentration not given, dose-dependent",,GSH level,increased
COc1cc(CNC(=O)C[C@H](C)CCC=C(C)C)ccc1OCc1cn(-c2ccccc2)nn1,OVCAR-4 ovarian cancer cells,SRB,"10 µM, 48 h",,growth percent,95.3%
Nc1c(S(=O)(=O)O)cc(Nc2cccc(S(N)(=O)=O)c2)c2c1C(=O)c1ccccc1C2=O,primary mouse articular chondrocytes,"real-time PCR, refers to: Sox9","25 µM, micromass culture",,mRNA level,increased
C=C1[C@H](O)CC(=C/C=C2\CCC[C@]3(C)[C@@H]([C@H](C)CCCCO)CC[C@@H]23)C[C@H]1O,HL-60,"cell differentiation, NBT reduction",,"reference: compound over 1α,25-dihydroxyvitamin D3",EC50 ratio,10
COc1cc(CNC(=O)C[C@H](C)CCC=C(C)C)ccc1OCc1cn(-c2cccc(Cl)c2)nn1,HOP-62,SRB,"10 µM, 48 h",,growth percent,89.3%
CC(C)C[C@@H]1NC(=O)[C@H](CC(C)C)NC(=O)[C@H](Cc2ccccc2)NC(=O)[C@@H]2CSSC[C@@H](C(=O)O)NC(=O)[C@H](CSSC[C@H](N)C(=O)N3CCC[C@H]3C(=O)N2)NC(=O)CNC1=O,THP-1,inhibitor,"concentration not given, together with: fibronectin",,cell adhesion,no inhibition
C=CC(=O)Nc1ccc(F)c(-c2ncnc3[nH]cc(C(=O)OCC)c23)c1,mouse CD4 T-cell blasts,cell proliferation,together with: IL-2,,EC90,0.015 µM
COc1cc(CNC(=O)C[C@H](C)CCC=C(C)C)ccc1OCc1cn(-c2cccc(C(F)(F)F)c2)nn1,SF-268 CNS cancer cells,SRB,"10 µM, 48 h",,growth percent,83.9%
CNC(=O)c1ccccc1Oc1nc(Nc2cc(OC)c(OC)c(OC)c2)ncc1Br,C2C12 myotubes,"immunoblot, refers to: phospho-ERK",5 µM,,ERK phosphorylation,inhibited
COc1cc(CNC(=O)C[C@H](C)CCC=C(C)C)ccc1OCc1cn(-c2ccccc2F)nn1,HCC 2998,SRB,"10 µM, 48 h",,growth percent,101%
COc1ccc(-c2ocnc2-c2cc(Br)c(OC)c(OC)c2)cc1OCCCC(=O)NO,"TFK1, EGI-1",cell proliferation,0.1 to 1.0 µM,,time to inhibition,24 h

# For quick reference, copied from above:
Structure (SMILES),cell line,test,conditions,how to read,quantity,result
Nc1ncc(-c2cnn(C3CCNCC3)c2)cc1-c1nc2ccc(O)cc2o1,HEL 92.1.7,"RT-PCR, refers to: cyclin B1","concentration not given, 16 h",reference: untreated,mRNA level,decreased
COc1cc(CNC(=O)C[C@H](C)CCC=C(C)C)ccc1OCc1cn(-c2ccc(Cl)c(Cl)c2)nn1,UACC-257 melanoma cells,SRB,"10 µM, 48 h",,growth percent,91%
